Assay results from different studies.
Every numbered part comes from another study and shows a few of its results, in no order. Positions count from the first letter of the parent shown.

Study 1
Target: Histone acetyltransferase KAT6A, winged helix 2, GST fusion (KAT6A, Homo sapiens, UniProt Q92794, residues 85-181)
Method: protein binding microarray
Molecule type: double-stranded DNA, one strand shown
Sample: in vitro
Tested at: not given
Setting: 8-mer, flanks averaged, mean of 2 arrays, mostly near background
Baseline: not given
Reading: higher = stronger binding
Residues (chain): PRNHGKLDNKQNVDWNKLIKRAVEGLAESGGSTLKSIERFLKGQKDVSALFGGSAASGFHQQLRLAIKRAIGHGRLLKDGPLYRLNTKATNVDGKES
| Oligonucleotide | E-score |
| --- | --- |
| AGACGTCG | -0.0773 |
| GTTTATGA | 0.0373 |
| CACTCAGC | -0.077 |
| GCTACTCC | 0.0878 |
| CCCAATAA | -0.222 |

Study 2
Target: RNA binding protein fox-1 homolog 2, RRM domain, GST-SBP tag (RBFOX2, Homo sapiens, UniProt O43251-10, residues 100-194)
Method: RNA Bind-n-Seq
Molecule type: RNA
Sample: in vitro
Tested at: 365 nM
Setting: natural RNA segment, single round, ends assumed
Baseline: no-protein control
Reading: higher = stronger binding
Shared flanks, not repeated: GGGAGUUCUACAGUCCGACGAUC … UGGAAUUCUCGGGUGCCAA
Residues (chain): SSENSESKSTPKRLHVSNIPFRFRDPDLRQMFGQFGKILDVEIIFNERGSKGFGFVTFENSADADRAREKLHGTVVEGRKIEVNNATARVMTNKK
| Oligonucleotide | RBNS enrichment (R) |
| --- | --- |
| UUUCUUCUUUUCUUUUCCUGCCAAGUUUUCGGUGGCAUUUGUAGAAGCUGGUGUGAAAGGCUAGGAGGCAUUGUUUUCUAUUAUUCCUCGGUGAAGCCUUUUCCCAGAGC | 1.16 |
| CAGCUGCAUGUGAUUUUGUGAUAAAGUUCAGGUAACAGGAUGGGCAGUGAUGGAGAAUCACUGUUGAUUGAGAUUUUGGUUUCCAUGUGAUUUGUUUUCUUCAAUAGUCU | 1.97 |
| UGGCCAGCUUAUGGCAGGAGCAAAGUCAGUCCCCCUUUCAGAGCCUCAGGAAGCUUGGAACACCUCAGUCACAAGCCUGUCAGUUUCUUCCUCUGGGAUGGGAGUCCCGC | 0.218 |
| CACUCACCACACACACUUCCUUCAAAAGACCAAAAGUGACUGGUGUCUCGUGUGACAGAUUGCUUCAUUUAUGUUUCUACAUAGUAAGGUGACUGCCAAAUAAUAUUUGA | 0.327 |
| CACAGGACAGCACUGCUUCCAUGCUUCAUACAUCAGGAAAUGAGGCCAGAACUUGAGUAUUUACUAACACGUUUUUCAAAAGAUGUCAGUGUUAUACCUAAAGCUAAAAA | 0.277 |
| UGCUCUUAUUUUUCCAACAGCUAAACUACUCUUAGUUGAACAGUGUGCCCUAGCUUUUCUUGCAACCAGAGUAUUUUUGUACAGAUUUGCUUUCUCUUACAAAAAGAAAA | 3.14 |
| UGAUAAAAAAAAUUGAUUAAAUUUAUUUCAUCUCAUAUAUAGAAGUACUUUAUUACCUGGAAACAUUCUUAAUAGAGAUUCAUUAGAAAACCCAAAUCUAAUGUUCAUGU | 0.665 |
| UGAGUGAAGGCAGUCAACAUCCUAGUAUGAAUCAGACCUAGCAGAAAUGUAAAUUAUUUCAAGUACUUCAGGGUUUAGUUUUCUUAGUGACACCCUGGACCCUGGAUGCU | 1.07 |

Study 3
Target: CCND1, cyclin fold, Cln2 fusion (human)
Method: yeast growth competition, sequencing
Sample: yeast
Setting: weak parent motif
Baseline: not given
Reading: higher = stronger binding
Parent: PKN2 docking peptide (human); DSTVTKLDFDLEP; partner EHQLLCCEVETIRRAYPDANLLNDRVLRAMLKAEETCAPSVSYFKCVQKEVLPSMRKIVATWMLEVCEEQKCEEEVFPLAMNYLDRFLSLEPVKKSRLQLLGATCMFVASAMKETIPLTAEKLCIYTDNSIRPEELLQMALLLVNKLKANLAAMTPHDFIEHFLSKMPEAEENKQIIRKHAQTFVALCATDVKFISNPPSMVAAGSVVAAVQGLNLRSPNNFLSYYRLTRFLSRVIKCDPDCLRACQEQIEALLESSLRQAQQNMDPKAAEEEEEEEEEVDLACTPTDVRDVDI
| Variant | normalised enrichment score |
| --- | --- |
| DSAVTKLDFDLEP [T3A] | 0.899 |
| DATVTKLDFDLEP [S2A] | 0.686 |
| ASTVTKLDFDLEP [D1A] | 0.539 |
| DSTVTKADFDLEP [L7A] | 0.125 |
| DSTATKLDFDLEP [V4A] | 0.645 |
| DSTVTKLDFDAEP [L11A] | 0.836 |

Single results of other studies
| Substance | target | assay | test system | setting | scale | endpoint | result |
| --- | --- | --- | --- | --- | --- | --- | --- |
| PhoQ, residues 284 288 289 292 302 303 AGGLSV | PhoP, residues 12 14 15 18 19 LYHSL (Escherichia coli, UniProt P23836) | Sort-seq, item: YFP reporter | E. coli | PhoQ-PhoP variant library, together with: 10 µM Mg2+ | baseline: high Mg2+ state, higher = stronger signaling | fold induction | 13.2 |

Excerpt of the above (study 2):
| Oligonucleotide | RBNS enrichment (R) |
| --- | --- |
| CACUCACCACACACACUUCCUUCAAAAGACCAAAAGUGACUGGUGUCUCGUGUGACAGAUUGCUUCAUUUAUGUUUCUACAUAGUAAGGUGACUGCCAAAUAAUAUUUGA | 0.327 |
| UUUCUUCUUUUCUUUUCCUGCCAAGUUUUCGGUGGCAUUUGUAGAAGCUGGUGUGAAAGGCUAGGAGGCAUUGUUUUCUAUUAUUCCUCGGUGAAGCCUUUUCCCAGAGC | 1.16 |
| CAGCUGCAUGUGAUUUUGUGAUAAAGUUCAGGUAACAGGAUGGGCAGUGAUGGAGAAUCACUGUUGAUUGAGAUUUUGGUUUCCAUGUGAUUUGUUUUCUUCAAUAGUCU | 1.97 |
